{"data": "Assay results collected from several papers", "note": "Parts stem from different laboratories: compare values within a part only. Changes are numbered by the printed parent chain."}
{"data": "Sample 1", "target": "Histone acetyltransferase KAT6A, winged helix 1, GST fusion (KAT6A, Homo sapiens, UniProt Q92794, residues 1-85)", "technique": "protein binding microarray", "molecule type": "double-stranded DNA, one strand shown", "sample": "in vitro", "tested at": "not given", "setting": "8-mer, flanks averaged, mean of 2 arrays, mostly near background", "baseline": "not given", "direction": "higher = stronger binding", "Construct (chain)": "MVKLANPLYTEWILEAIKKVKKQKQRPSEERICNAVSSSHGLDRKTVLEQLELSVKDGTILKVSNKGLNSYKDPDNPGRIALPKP"}
{"Strand": "GAACCGGA", "E-score": 0.234}
{"Strand": "CGCCTCCC", "E-score": 0.0869}
{"Strand": "GGAAGCGA", "E-score": 0.0834}
{"Strand": "CGCCCGAA", "E-score": 0.0824}
{"Strand": "ACATACGG", "E-score": 0.229}
{"Strand": "GCCTATTA", "E-score": -0.0904}
{"Strand": "CCTGTACC", "E-score": -0.125}
{"Strand": "GACTACGC", "E-score": 0.221}
{"data": "Sample 2", "target": "Hepatocyte nuclear factor 3-alpha (Foxa1, Mus musculus, UniProt P35582, residues 1-468, full length assumed)", "technique": "EMSA with sequencing", "molecule type": "double-stranded DNA, one strand shown", "sample": "in vitro", "tested at": "10 and 20 nM", "setting": "whole designed probe, mean of two concentrations, ends assumed", "baseline": "negative control set to 0", "direction": "higher = stronger binding", "all sequences stand within": "GTGAGCGGTGCCCATTGATGGGGAAC … TTTCACTGGGATCGTGGGGAC", "chain of UniProt P35582 (whole entry, looked up)": "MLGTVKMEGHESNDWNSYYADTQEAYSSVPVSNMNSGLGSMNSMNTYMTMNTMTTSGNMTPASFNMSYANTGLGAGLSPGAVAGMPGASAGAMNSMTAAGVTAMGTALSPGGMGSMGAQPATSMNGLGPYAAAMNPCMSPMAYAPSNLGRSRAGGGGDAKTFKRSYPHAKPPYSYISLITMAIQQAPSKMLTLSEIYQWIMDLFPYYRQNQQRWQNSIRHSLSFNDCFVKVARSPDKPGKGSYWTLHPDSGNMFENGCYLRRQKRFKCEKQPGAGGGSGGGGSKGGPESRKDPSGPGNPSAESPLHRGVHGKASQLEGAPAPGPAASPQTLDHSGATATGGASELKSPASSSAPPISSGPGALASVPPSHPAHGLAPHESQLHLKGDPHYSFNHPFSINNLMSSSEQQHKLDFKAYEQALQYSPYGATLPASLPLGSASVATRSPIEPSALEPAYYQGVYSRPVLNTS"}
{"Strand": "CATTAGAGTCAAAGTTGTTAAGGGGAGCTAGTCATAGCTACCACGTGGCCAGGCATGTGGAACCAGACACATGAATCATCACAGGCACATAAAGTAAATAGATGAATAATGCTGACAACCTAGTTCATAGTGACACACTACTTGAGATATATAGAATAACATTATTACCCAGTAAGTATGTGAACATTCCGAT", "normalised bound fraction [ratio]": 0.426}
{"Strand": "TGTGCCTGAGCAAGCTGTGTTTGCTCATCGTCTGGACAAACCTTGTTGAATCTTGTCAGGAAACTTTTTACATTGCTCCTTGGCAAATAGTGCTATTTACTTTGTTTAAATACCTGCAGGAAATAACACAATTGAGCAAACTAGAGACAAGGACAGTTAGTGTATTGAGTATTTTTTTCTCAATTTATTATGC", "normalised bound fraction [ratio]": 0.421}
{"Strand": "GGACACAGCCAGAGGCCATGAGTGCTCAGGAGTGCCATAAACTGTGATTTTGAGACTGATAAGGCCAGGCTAAACTGGGTGTGTCTAGCTTGTTGTTTGCCTTTTTATATTTGAGGCCTATAAAAAAATAGTGAGAAAATAGCAAGATGCCCAGGAGACAGGTGATCTGATTCAGCCAGGGGGTGGGAGGTGG", "normalised bound fraction [ratio]": 0.0649}
{"Strand": "AACAATCTCCATGCACTAACCCTGGTTAATGTATTACTCTTTAACTCACACTCTAATCTAACTGTGACAGTGATGAGTTGTAAATTCTGCTTCATGTGTACATTTCCTGAGGTTGACATTAAAACGCCTCTGCAGACCCAGCAGAGTTCAGAGGTTTAAAGTTGAAATTTTCATATTCAAATAGAGTTGTCTG", "normalised bound fraction [ratio]": 0.119}
{"Strand": "CTATGTGCTGCCCCCAGAGGTGGAGTGTACAGAGGCAGGCAGGCTTCCTTGAGCTGCAGTGAGTTCCACCCAGTTTGAGCTTCCTGGCTGCTTAGATTACCTACTCAAGCCTCAGCAATGGCGACGCCCCTCCCTCAGCCTGGCTGCTGTCTTGCAGTTAGATCTCAGACTGCTGTGCCAGCAGTGAGCAAGG", "normalised bound fraction [ratio]": -0.0618}
{"data": "Sample 3", "target": "NFE2L2, bZIP domain (human)", "technique": "DHFR protein complementation", "sample": "yeast", "setting": "single substitutions, most at no-binding floor", "baseline": "wild-type JUN-FOS pair", "direction": "higher = stronger binding", "starting sequence": "JUN, bZIP domain (human); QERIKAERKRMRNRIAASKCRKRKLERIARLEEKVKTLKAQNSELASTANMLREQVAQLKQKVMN; partner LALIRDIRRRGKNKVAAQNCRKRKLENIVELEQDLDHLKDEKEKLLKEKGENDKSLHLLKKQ"}
{"Substitution": "L45E", "binding fitness [natural log]": -1.52}
{"Substitution": "I28G", "binding fitness [natural log]": -1.41}
{"Substitution": "S43M", "binding fitness [natural log]": -1.51}
{"Substitution": "T37I", "binding fitness [natural log]": -1.33}
{"Substitution": "I28K", "binding fitness [natural log]": -1.49}
{"Substitution": "S47C", "binding fitness [natural log]": -1.41}
{"Substitution": "L38K", "binding fitness [natural log]": -1.44}
{"Substitution": "M51W", "binding fitness [natural log]": -1.44}
{"data": "Mixed results"}
{"Molecule": "TQIPRQMVL", "target": "HLA class I histocompatibility antigen, A alpha chain, allele A*80:01 (Homo sapiens, UniProt P04439)", "test": "peptide-MHC binding", "system": "peptide", "setting": "concentration not given", "quantity": "binding", "result": "inactive"}
{"note": "Repeated from above (mixed results):"}
{"Molecule": "TQIPRQMVL", "target": "HLA class I histocompatibility antigen, A alpha chain, allele A*80:01 (Homo sapiens, UniProt P04439)", "test": "peptide-MHC binding", "system": "peptide", "setting": "concentration not given", "quantity": "binding", "result": "inactive"}
